Measured values collected from several papers.
A part holds a random share of what one study measured. Substitutions count along the parent as printed.

Series 1 — method: DHFR PCA, deep sequencing; matrix: yeast; added: (+)-ABA 2500 µM; reference: wild-type fitted maximum; direction: higher = stronger binding; endpoint: relative binding score
Target: ABI1, truncated, D143A, DHFR fusion (Arabidopsis thaliana)
Notes: methotrexate growth selection, single substitutions
Starting sequence: PYL1, truncated, DHFR fusion (Arabidopsis thaliana); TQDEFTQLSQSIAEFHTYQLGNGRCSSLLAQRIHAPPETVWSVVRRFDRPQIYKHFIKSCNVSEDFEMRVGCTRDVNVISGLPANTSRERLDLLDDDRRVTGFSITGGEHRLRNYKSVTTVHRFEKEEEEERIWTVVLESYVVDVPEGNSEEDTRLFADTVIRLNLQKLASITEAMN; partner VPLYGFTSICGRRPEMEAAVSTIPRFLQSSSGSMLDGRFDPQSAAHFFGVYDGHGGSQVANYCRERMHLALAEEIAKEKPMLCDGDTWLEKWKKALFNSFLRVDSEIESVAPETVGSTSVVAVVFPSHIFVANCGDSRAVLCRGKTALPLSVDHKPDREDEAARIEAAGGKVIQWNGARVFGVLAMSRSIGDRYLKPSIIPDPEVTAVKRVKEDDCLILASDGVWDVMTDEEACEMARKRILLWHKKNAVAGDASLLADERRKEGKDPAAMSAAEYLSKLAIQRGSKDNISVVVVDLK
G148P: 89.9%
I52H: 98.2%
R132G: 110%

Series 2 — method: protein-binding microarray; molecule type: double-stranded DNA, one strand shown; matrix: in vitro; tested at: 2540 nM top; notes: 60-bp whole probe; added: salmon DNA 0.4 mg/ml; reference: random background probes; direction: higher = stronger binding; endpoint: fitted relative affinity; all sequences stand within: GCCTAGCAC … GTCTTGATTCGCTTGACGCTGCTG
Target: Interferon regulatory factor 3, full length, phosphomimetic (IRF3, Homo sapiens, UniProt Q14653, residues 1-427, S386D/S396D/S398D/S402D/T404D/S405D)
Chain of UniProt Q14653 (whole entry, unmodified, looked up): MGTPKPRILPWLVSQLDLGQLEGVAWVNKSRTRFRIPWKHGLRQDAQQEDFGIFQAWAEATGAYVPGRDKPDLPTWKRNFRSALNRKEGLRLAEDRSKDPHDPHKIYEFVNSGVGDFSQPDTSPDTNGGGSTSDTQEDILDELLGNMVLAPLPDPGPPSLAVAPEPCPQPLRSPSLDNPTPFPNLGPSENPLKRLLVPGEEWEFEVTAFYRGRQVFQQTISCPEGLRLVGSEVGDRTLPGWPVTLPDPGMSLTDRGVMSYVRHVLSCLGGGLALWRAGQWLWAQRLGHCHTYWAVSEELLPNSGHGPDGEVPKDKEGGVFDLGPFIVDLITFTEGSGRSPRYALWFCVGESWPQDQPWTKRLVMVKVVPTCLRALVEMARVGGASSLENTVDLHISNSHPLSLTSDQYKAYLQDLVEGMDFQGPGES
GACGAACTGAGACTAGAGACGTGCTAG: -0.133 z-score
GACGATTTCAGTTCCGAGATGTGCTAG: 3 z-score
GACGAACTGAGTATCGTGACGTGCTAG: -0.0495 z-score
GACGGATTCGGTTCCGGGACGTGCTAG: 4.57 z-score
TTAGGACTGCGTATCCTTTAGTGCTAG: 0.957 z-score
TTAGGACTGGGGACTGGGCTAGTGCTA: -1.16 z-score
GACGAAATGAGTTTCGAGACGTGCTAG: 1.68 z-score
GACGTTTTCCTTATCCTGACGTGCTAG: 4.72 z-score

Series 3 — method: RNA Bind-n-Seq; molecule type: RNA; matrix: in vitro; tested at: not given; reference: input RNA pool; direction: higher = stronger binding; endpoint: bound/input enrichment
Target: RING finger protein unkempt homolog, zinc fingers 1-6, GST-SBP tag (UNK, Homo sapiens, UniProt Q9C0B0, residues 30-357)
Chain of UniProt Q9C0B0 (30-357, looked up): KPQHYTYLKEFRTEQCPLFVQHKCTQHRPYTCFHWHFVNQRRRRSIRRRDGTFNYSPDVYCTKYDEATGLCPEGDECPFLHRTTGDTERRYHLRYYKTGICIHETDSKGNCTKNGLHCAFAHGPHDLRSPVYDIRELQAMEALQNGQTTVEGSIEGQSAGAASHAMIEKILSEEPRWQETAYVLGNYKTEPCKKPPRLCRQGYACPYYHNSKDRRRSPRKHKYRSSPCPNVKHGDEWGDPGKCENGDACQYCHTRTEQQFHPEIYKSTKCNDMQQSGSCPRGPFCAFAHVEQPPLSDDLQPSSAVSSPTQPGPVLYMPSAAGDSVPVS
Notes: RNA with constant flanks, human and mouse sites, ends assumed
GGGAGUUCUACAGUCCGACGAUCUUCAGGAAGGGCCGGGAAGACAGAGCUCCACUCCUGAAGACGUUCAGCUUCUUGGGCUUUGAGAUUGUGCGUCCAGGUCAUCCCUGUGUCCCCUCUCGGCCAGAUGUGAUGUUUAUGGUUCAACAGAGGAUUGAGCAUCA: 0.105 ratio
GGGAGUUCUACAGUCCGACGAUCAAGGAAGCACGAAAGCGCCGGGAGGAGCGCCUCCAGGCCAAGAAGGAAGAGAUCAUCAAGACUCUGUCCAAGGAGGAGGAGACCAAGAAAUAAAGCUUCCCUCGUGUCUGUACAUAGCGGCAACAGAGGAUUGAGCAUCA: 0.27 ratio
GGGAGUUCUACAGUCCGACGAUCAAUGUUUCAUCAUCAGGAACUUUCGGUUUUAAAAAAGAAACAUUACUUUUGUCUGCUAAAGUAAACCAUAUAUAGGGAAAUUAACACCUAGGAAAAGAAAACUGGCAAGAGAAUUGAUGACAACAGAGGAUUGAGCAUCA: 0.404 ratio
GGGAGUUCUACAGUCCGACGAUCUUCUACUUUGGUUCCCUGAGGCUCAAUUCUAUUCACAUCUCCCAGAGGUUCACGGUGGACAGCUUUGGAAACUAUGCCUCCUGCGGACAUGUUGACUUCUCCUGACGCGGGAGAGCAGCACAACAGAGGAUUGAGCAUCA: 0.242 ratio
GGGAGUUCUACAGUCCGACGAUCGAGGGCAGGGCUCACAGACUCCAAAAGCUGACAAAGUCCCAUCACUUACACAAACAGUGAUUUAGAACAACUUCGAAAAAUCAGGCGGCGAAGUCCCCACGAUGACACCGAGUCCUUUACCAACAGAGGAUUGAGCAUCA: 0.325 ratio
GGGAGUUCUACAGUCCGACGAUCAAAAGCAUUAAACACAGCACAGCAGCCCCUAGCCCAGAUCCCUAAGUUCCUAGUGGCAGCAUUUAUCAAUGUAAGAACAAGAAUACUUUCUGUACUGGUAUCAGCUUCGUCCUCAAAGCUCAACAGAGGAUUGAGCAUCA: 0.487 ratio

Further values, each from its own experiment
PhoQ, residues 284 288 289 292 302 303 TASMAF — fold induction (PhoP, residues 12 14 15 18 19 MHTVL (Escherichia coli, UniProt P23836); Sort-seq, measured: YFP reporter; E. coli; PhoQ-PhoP variant library, added: 10 µM Mg2+; reference: high Mg2+ state, higher = stronger signaling): 8.22

Excerpt of the above (series 1):
R132G: 110%
G148P: 89.9%
I52H: 98.2%
